Results gathered from unrelated publications.
Parts stem from different laboratories: compare values within a part only.
Chain of UniProt P47898 (whole entry, looked up): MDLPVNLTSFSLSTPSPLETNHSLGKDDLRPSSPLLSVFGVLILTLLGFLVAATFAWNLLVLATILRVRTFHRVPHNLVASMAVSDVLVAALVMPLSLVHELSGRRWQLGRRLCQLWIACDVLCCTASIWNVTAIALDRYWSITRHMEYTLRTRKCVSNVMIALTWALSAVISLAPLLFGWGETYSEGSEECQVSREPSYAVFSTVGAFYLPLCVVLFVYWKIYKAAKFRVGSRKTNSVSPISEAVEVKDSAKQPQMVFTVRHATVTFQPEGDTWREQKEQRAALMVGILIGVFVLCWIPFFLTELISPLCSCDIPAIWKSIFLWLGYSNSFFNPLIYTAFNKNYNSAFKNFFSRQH

Block 1 — host: human; sample: microsomes or S9; concentration: 2 µM; time: 0.5 h; measurement: remaining compound
O=C(O)CCc1nc2cc(-c3ccsc3)ccc2[nH]1: 88.2%
Cc1nc2ccc(N3CCN(c4ncc(C)s4)CC3)nn2n1: 4.04%
c1ccc2c(c1)CC[C@H](Cn1ccnc1-c1cc3n(n1)CCCNC3)O2: 69.9%

Block 2 — sample: EL4 tumour; dose: dose not given; relative to: vehicle; measurement: log2 fold change
SMILES: CC(=O)N[C@@H](Cc1c[nH]c2ccccc12)C(=O)N[C@@H](CCC(=O)C=[N+]=[N-])C(=O)OC(C)C
measured: methyl glucopyranoside (alpha + beta); Mus musculus: 0.32
measured: 4-hydroxy-nonenal-glutathione; mouse, EL4 tumour-bearing: 0.0823
measured: N-acetylhistidine; mouse, EL4 tumour-bearing: -0.177
measured: succinimide; mouse, EL4 tumour-bearing: 0.251

Single results of other studies
C[C@@H](c1cccc(C#N)c1)n1cc(Cl)cc(C(N)=O)c1=N  inhibition (HTR5A (Homo sapiens, UniProt P47898); ligand displacement; 10 µM): -12.9%
CC(C)n1cnc(-c2ccc(F)cc2)c1-c1ncc(C(=O)Nc2ccc(N3CCN(C)CC3)cc2)[nH]1  patients with Osteoporosis (human, idiopathic pulmonary fibrosis; 30 mg once daily, trial, treatment-emergent): 0%

For quick reference, copied from above (single results of other studies):
C[C@@H](c1cccc(C#N)c1)n1cc(Cl)cc(C(N)=O)c1=N  inhibition (HTR5A (Homo sapiens, UniProt P47898); ligand displacement; 10 µM): -12.9%
